Published values gathered from unrelated publications.
Values joined by “and” are separate records of one study, mostly repeats; a detail may differ.
Target: Serine/threonine-protein kinase 25 (STK25, Homo sapiens, UniProt O00506)

`CCn1cc(C(=O)O)c(=O)c2c(N)c(F)c(NC3CCCCC3)cc21` has an inhibition of 10.5% (kinase activity; 0.1 µM, together with: ATP at Km).
For `Cc1cccc(O[C@H]2CCC[C@@H](C(C)CNCc3ccncc3)C2)c1` (relative stereo), the inhibition was -2% (enzyme activity, inhibitor; 10 µM).
For `CCN1CCN(Cc2ccc(C(=O)Nc3ccc(C)c(NCc4cnc5[nH]ccc5c4OC)c3)cc2C(F)(F)F)CC1`, the remaining binding was 67% (binding, competition with immobilised ligand; 1 µM).
`C=CC(=O)N1Cc2nc(-c3cc(-c4cc(Cl)cnc4Cl)c(F)cc3F)n(-c3ccncn3)c2C1` has an inhibition of 0.9% (cell-free assay, inhibitor; 1 µM).
`CC(C)=CC1OC(C)(C)C2C=C3C(=O)C(Cl)=CC(O)C3C3C(O)C4OC4C(=O)C132` (stereo not drawn) has a remaining binding of 86% (cell-free assay, competition with immobilised ligand; 10 µM).
With `COc1cc(Nc2nc(C)cc(-c3cnn4nc(OC)ccc34)n2)cc(C(F)(F)F)c1` the remaining binding was 91% (binding, competition with immobilised ligand; 1 µM).
For `CNC(=O)C1CCN(c2cc(C)c(F)cc2NC(=O)c2ccc(-c3cc(O)ccc3C)c(C)c2)CC1`, the remaining binding was 98% (binding, competition with immobilised ligand; 1 µM).
The remaining binding of `C=CC(=O)N1CCc2ccc(-n3c(=O)ccc4cnc5ccc(-c6cnn(C)c6)cc5c43)cc21` is reported as 96% (KINOMEscan; 1 µM; relative to: DMSO control).
Under “activity vs control”, `O=C(Cc1ccc(OCc2ccccc2)cc1)NC1(C(=O)O)CCN(C(=O)c2ccc(-c3cccc(Cl)c3)cc2)CC1` is recorded as 101% (enzyme activity, inhibitor; 10 µM).
The remaining binding of `Nc1ncc2c(n1)-c1c([nH]c3ccc(C4=CCOCC4)cc13)CCC2` is reported as 100% (binding, competition with immobilised ligand; 1 µM).
For `COc1c(Cl)cccc1Nc1c(-c2ccncc2C#C[C@@]2(C)CCCN2C(=O)/C=C/CN(C)C)[nH]c2c1C(=O)NCC2`, the remaining binding was 87% (binding, competition with immobilised ligand; 3 µM).
`C=CC(=O)Nc1cc(-c2nn(C3CCN(CCNC(=O)[C@H](C)CCC45CC6CC(CC(C6)C4)C5)CC3)c3ncnc(N)c23)ccc1Oc1ccccc1` has an inhibition of -67.8% (inhibitor, KiNativ profiling; biochemical; 2 µM).
With `C=CC(=O)Nc1cccc(-c2cnc3[nH]cc(C(=O)NC(C)(C)C)c3n2)c1` the inhibition was 11% and 8% (kinase activity; 0.1 µM).
`NC(=O)C[C@H]1CCc2sc3ncnc(O[C@H]4CC[C@H](N5CCOCC5)CC4)c3c21` has an inhibition of 10% (enzyme activity, inhibitor; 10 µM).
For `C=CC(=O)N1CCCC(n2c(=O)c3ncccc3n(Cc3ccc(Oc4ccccc4)cc3)c2=O)C1` (stereo not drawn), the remaining binding was 100% (cell-free assay, competition with immobilised ligand; 1 µM).

Some of these lines once more:
The remaining binding of `C=CC(=O)N1CCc2ccc(-n3c(=O)ccc4cnc5ccc(-c6cnn(C)c6)cc5c43)cc21` is reported as 96% (KINOMEscan; 1 µM; relative to: DMSO control).
`C=CC(=O)Nc1cc(-c2nn(C3CCN(CCNC(=O)[C@H](C)CCC45CC6CC(CC(C6)C4)C5)CC3)c3ncnc(N)c23)ccc1Oc1ccccc1` has an inhibition of -67.8% (inhibitor, KiNativ profiling; biochemical; 2 µM).
